# Results gathered from unrelated publications.
# Parts stem from different laboratories: compare values within a part only.
# UniProt Q07912, sequence (whole entry, looked up): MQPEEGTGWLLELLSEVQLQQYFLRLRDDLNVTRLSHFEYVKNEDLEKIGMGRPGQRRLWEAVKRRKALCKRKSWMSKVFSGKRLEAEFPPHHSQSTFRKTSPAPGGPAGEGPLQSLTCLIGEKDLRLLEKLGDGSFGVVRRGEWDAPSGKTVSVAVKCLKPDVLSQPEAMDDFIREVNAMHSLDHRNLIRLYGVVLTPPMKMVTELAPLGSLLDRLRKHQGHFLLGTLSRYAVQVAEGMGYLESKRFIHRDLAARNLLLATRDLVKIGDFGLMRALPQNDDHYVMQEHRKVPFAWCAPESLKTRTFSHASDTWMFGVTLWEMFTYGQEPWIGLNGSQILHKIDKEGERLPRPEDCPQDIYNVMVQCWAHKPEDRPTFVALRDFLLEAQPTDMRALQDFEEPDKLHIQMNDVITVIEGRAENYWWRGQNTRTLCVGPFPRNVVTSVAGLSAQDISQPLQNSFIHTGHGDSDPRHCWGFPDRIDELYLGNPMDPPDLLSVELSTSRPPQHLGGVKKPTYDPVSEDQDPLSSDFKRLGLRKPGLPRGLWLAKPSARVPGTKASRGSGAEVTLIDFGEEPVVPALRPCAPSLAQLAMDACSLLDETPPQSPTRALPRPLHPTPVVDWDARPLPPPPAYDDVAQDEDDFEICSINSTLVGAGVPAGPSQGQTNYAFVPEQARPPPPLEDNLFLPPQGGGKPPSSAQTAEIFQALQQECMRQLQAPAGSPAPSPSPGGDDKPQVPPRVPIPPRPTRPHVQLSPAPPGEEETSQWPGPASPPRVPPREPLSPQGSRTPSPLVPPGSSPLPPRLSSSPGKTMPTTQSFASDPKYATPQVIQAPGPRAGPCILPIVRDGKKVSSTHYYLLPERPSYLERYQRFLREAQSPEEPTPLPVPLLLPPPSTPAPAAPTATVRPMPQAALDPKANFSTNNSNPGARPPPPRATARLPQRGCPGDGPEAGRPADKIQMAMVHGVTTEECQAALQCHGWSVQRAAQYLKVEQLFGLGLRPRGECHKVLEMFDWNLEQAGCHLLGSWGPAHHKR

# Set 1 — method: protein-binding microarray; form: double-stranded DNA, one strand shown; medium: in vitro; concentration: 0.8 µM; notes: whole 60-bp probe, no competitor; reading: higher = stronger binding; all sequences stand within: … GTCTTGATTCGCTTGACGCTGCTG
# Target: Centromere-binding protein 1, full length, N-terminal tag (CBF1, Saccharomyces cerevisiae, UniProt P17106, residues 1-351)
# UniProt P17106, sequence (whole entry, looked up): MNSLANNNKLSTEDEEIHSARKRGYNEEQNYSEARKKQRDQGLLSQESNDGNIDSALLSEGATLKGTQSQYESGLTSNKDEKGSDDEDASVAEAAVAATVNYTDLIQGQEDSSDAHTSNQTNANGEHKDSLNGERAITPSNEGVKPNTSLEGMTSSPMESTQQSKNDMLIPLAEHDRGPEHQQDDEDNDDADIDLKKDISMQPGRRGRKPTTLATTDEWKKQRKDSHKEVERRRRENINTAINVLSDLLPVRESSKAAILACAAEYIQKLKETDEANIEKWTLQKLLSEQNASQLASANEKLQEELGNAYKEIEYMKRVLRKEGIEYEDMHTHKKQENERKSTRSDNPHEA
Sequence,fluorescence intensity [a.u.]
TGTACGAAGCTATCGGTGGTGGTTATAGTAGTTAGG,510
TGTACGAAGCTATAGCACGTTTTTATAGTAGTTAGG,698
CTAGCTTGATGACATGTGATAGCACACCATGCTTTC,1950
GAAGACTTCTCGGAACACATGCTAAAGCTCCAGTAG,667
CTAAAGGATTAATGAGAGGTGACGTATAAAATCTTC,501
CTATTTTACCGTACGCACGTCATCGATGTATACTTC,533
GAATCTTTATGTCATCTTGTCACGTCTTATATGTAG,728
GAAGCCGTACAGAACTACATGATGTATTGCATTTAG,507

# Set 2 — method: protein-binding microarray; form: double-stranded DNA, one strand shown; medium: in vitro; concentration: not given; reading: higher = stronger binding
# Target: Hepatocyte nuclear factor 3-beta, forkhead domain (FOXA2, Homo sapiens, UniProt Q9Y261, residues 142-269)
# Notes: k-mer, scored over probes, only values ≥0.25
# Target sequence (chain): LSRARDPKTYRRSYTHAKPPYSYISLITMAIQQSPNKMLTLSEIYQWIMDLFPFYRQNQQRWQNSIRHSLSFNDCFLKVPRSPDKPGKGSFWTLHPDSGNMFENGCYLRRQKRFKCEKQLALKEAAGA
Sequence,E-score
ATTATTTA,0.336
AGATATAT,0.304
CTGTAAAC,0.306
ACAAACAT,0.342
TCAATACA,0.341
ATAACTAC,0.276
TGTCTAAA,0.279
CTAAACAC,0.251

# Further values, each from its own experiment
Molecule,tested on,test,setting,scale,measurement,result
Nc1cccc(-c2cc3c(Oc4cccc(O)c4)ncnc3[nH]2)c1,"TNK2 (Homo sapiens, UniProt Q07912)","enzyme activity, inhibitor",0.5 µM,baseline: control,remaining activity,19.6%
"RAB8A (Homo sapiens, UniProt P61006)","RAB8B (Homo sapiens, UniProt Q92930)",cross-linking MS,hits only,,interaction screen,cross-linked

# Excerpt of the above (set 2):
Sequence,E-score
ATTATTTA,0.336
AGATATAT,0.304
